Results collected from several papers.
Values joined by “and” are separate records of one study, mostly repeats; a detail may differ. Numbers after ± are the reported error. In brackets after ≈: the same amount, converted by molar mass.

SMILES	test	system	setting	how to read	quantity	result
CCCCCC[C@H]1C(=O)O[C@H](C)[C@H](NC(=O)c2cccc(NC=O)c2O)C(=O)O[C@@H](C)[C@@H]1OC(=O)CC(C)C		BALB/c mice	intraperitoneal, 10 (unit not given)		LD50	6.13 mg/kg
CO[C@H]1C[C@@H]2CC[C@@H](C)[C@@](O)(O2)C(=O)C(=O)N2CCCC[C@H]2C(=O)O[C@H]([C@H](C)C[C@@H]2CC[C@@H](OC(=O)NCCOCCOCCOCCOCCOCCOCCOCCOCCC(=O)N3CCc4cc(Cn5nc(-c6ccc7oc(N)nc7c6)c6c(N)ncnc65)ccc4C3)[C@H](OC)C2)C[C@@H](O)[C@H](C)/C=C(\C)[C@@H](O)[C@@H](OC)C(=O)[C@H](C)C[C@H](C)/C=C/C=C/C=C/1C	phase 1 dose escalation, refers to: nausea	advanced solid tumour patients	intravenous, 8 mg weekly, any grade		TRAE incidence	37.5%
O=C(Nc1ccccc1)C1CCN(C(=O)Oc2cccnc2)CC1		healthy women	oral, 60 mg, 7 days		adverse event Palpitations	0%
O=C(c1ccc(F)c(F)c1Nc1ccc(I)cc1F)N1CC(O)([C@@H]2CCCCN2)C1		human patients	oral, dose not given, dose escalation, tablet		treatment-related AE causing withdrawal	6%
Cn1c(=O)c2[nH]cnc2n(C)c1=O		human whole blood	1000 ng/mL, 60 min, 37 °C		blood-to-plasma ratio	0.86 ± 0.006
c1csc(CNc2cc[nH]n2)c1	micronucleus	CD-1 mouse Hsd:ICR(CD-1), female, bone marrow	oral, 500 mg/kg/day, 3 days		PCE to total erythrocyte ratio	0.465
CCc1ccc(CC/C=C/c2ccc3c(c2)C(=O)CC3)cc1		Sprague-Dawley rat, male	oral, 450 mg/kg/day, 14 days		GGT serum activity	1.33 U/L
CC(C)n1c(C2CCNCC2)nc2c([N+](=O)[O-])c(Br)c(Br)cc21	refers to: Odynophagia	AML patients	125 mg		adverse events causing interruption	2%
COc1ccc(-c2c(-c3ccc(C#N)c(F)c3)nc(N3CCC(N)CC3)n(C)c2=O)cc1F	refers to: maculo-papular rash	human patients	oral, dose not given, dose escalation		grade 3-4 TRAE incidence	0%
CC[C@H](C)[C@H](NC(=O)[C@H](Cc1ccccc1)NC(=O)[C@H](CCC(=O)O)NC(=O)[C@H](CCCNC(=N)N)NC(=O)[C@H](C)NC(=O)[C@H](C)NC(=O)[C@H](CCC(N)=O)NC(=O)[C@H](CCC(=O)O)NC(=O)[C@H](CCC(=O)O)NC(=O)[C@H](CC(C)C)NC(=O)[C@H](Cc1ccc(O)cc1)NC(=O)[C@H](CO)NC(=O)[C@H](CO)NC(=O)[C@@H](NC(=O)[C@H](CC(=O)O)NC(=O)[C@H](CO)NC(=O)[C@@H](NC(=O)[C@H](Cc1ccccc1)NC(=O)[C@@H](NC(=O)CNC(=O)[C@H](CCC(=O)O)NC(=O)[C@H](C)NC(=O)CCc1cnc[nH]1)[C@@H](C)O)[C@@H](C)O)C(C)C)C(=O)N[C@@H](C)C(=O)N[C@@H](Cc1c[nH]c2ccccc12)C(=O)N[C@@H](CC(C)C)C(=O)N[C@H](C(=O)N[C@@H](CCCNC(=N)N)C(=O)NCC(=O)N[C@@H](CCCNC(=N)N)C(=O)N[C@@H](CCCCNC(=O)COCCOCCNC(=O)COCCOCCNC(=O)CC[C@H](NC(=O)CCCCCCCCCCCCCCCCC(=O)O)C(=O)O)C(=O)NCC(=O)NCC(=O)N[C@@H](CO)C(=O)N[C@@H](CCCCNC(=O)[C@H](CCCCNC(=O)[C@H](CCCCNc1c(NCCCCCN(O)C(=O)CCC(=O)NCCCCCN(O)C(=O)CCC(=O)NCCCCCN(O)C(C)=O)c(=O)c1=O)Nc1c(NCCCCCN(O)C(=O)CCC(=O)NCCCCCN(O)C(=O)CCC(=O)NCCCCCN(O)C(C)=O)c(=O)c1=O)NC(=O)[C@H](CCCCNc1c(NCCCCCN(O)C(=O)CCC(=O)NCCCCCN(O)C(=O)CCC(=O)NCCCCCN(O)C(C)=O)c(=O)c1=O)Nc1c(NCCCCCN(O)C(=O)CCC(=O)NCCCCCN(O)C(=O)CCC(=O)NCCCCCN(O)C(C)=O)c(=O)c1=O)C(=O)O)C(C)C [zirconium-89 labelled]	ex vivo gamma counting	Sprague-Dawley rat, male, kidney	intravenous, 1 nmol, 24 h		tissue uptake	16.5 %ID/g and 17.1 %ID/g and 14.8 %ID/g and 16.9 %ID/g and 15.7 %ID/g
CCN1CCN(Cc2ccc(Nc3ncc(F)c(-c4cc(F)c5nc6n(c5c4)[C@H](C)CCC6)n3)nc2)CC1	Phase Ia dose escalation	patients with advanced solid tumours	dose not given, monotherapy, any grade		blood bilirubin increased incidence	20.8%
COc1cc2c(Oc3ccc4[nH]c(C)cc4c3F)ccnc2cc1OCC1(N)CC1	refers to: grade 1 or 2 weight loss	paediatric high-risk refractory sarcoma	8 mg		incidence of adverse event	0%
OB(O)CSc1nc2ccccc2n1Cc1ccc(C(F)(F)F)cc1C(F)(F)F		mouse, thigh	subcutaneous, 25 mg/kg, 8 h		concentration	20000 ng/g
CC(C)C[C@H](NC(=O)[C@H](CCCCN)NC(=O)OCC1c2ccccc2-c2ccccc21)C(=O)N[C@H](C(=O)N[C@@H](Cc1ccccc1)C(=O)N[C@@H](Cc1ccccc1)C(=O)N[C@@H](CCCCN)C(=O)NCC(=O)N[C@@H](Cc1ccccc1)C(=O)N[C@@H](C)C(=O)N[C@@H](Cc1c[nH]c2ccccc12)C(=O)N[C@@H](CC(N)=O)C(=O)N[C@H](C(=O)N[C@H]1CSSC[C@@H](C(=O)N[C@@H](Cc2c[nH]cn2)C(=O)N[C@@H](CCCNC(=N)N)C(=O)N[C@@H](CCCNC(=N)N)C(=O)N[C@@H](C)C(=O)N[C@@H](CC(N)=O)C(N)=O)NC(=O)[C@H](C(C)C)NC(=O)[C@H](CCCNC(=N)N)NC(=O)[C@H](C(C)C)NC(=O)CNC(=O)[C@H](CC(N)=O)NC(=O)[C@H](CCCNC(=N)N)NC(=O)[C@H](Cc2ccc(O)cc2)NC(=O)[C@H](C(C)C)NC1=O)C(C)C)C(C)C		ICR mouse, serum	ip, 10 mg/kg, 3 d dosing, blood day 5		blood urea nitrogen	10.1 ± 0.63 mmol/L
C[C@H]1COCCN1c1nc(NCc2cccnc2C(F)(F)F)c2cccnc2n1		conscious rat	intravenous, 30 mg/kg	baseline: control	PR change	18.1%
O=C(Nc1ccc(F)cc1)Nc1ccc2c(c1)C=CCP(=O)(O)O2	HPLC-UV	50 mM PBS	16 h, pH 7.4, 25 °C, upper limit 2.5 mg/mL		kinetic solubility	2350 µg/mL (≈ 6.75 mM)
CCN1[C@@H](C(=O)NC23CCC(C(=O)O)(CC2)CC3)[C@H](c2cccc(Cl)c2F)[C@]2(C(=O)Nc3cc(Cl)ccc32)C12CCCCC2		patients with advanced solid tumours	oral, 150 mg		grade ≥3 Neutropenia incidence	50%
COc1ncccc1-c1cnn2ccc(N3CCN(C(=O)OC(C)C)CC3)nc12		mouse nerve ligation model, brain	oral, 30 mg/kg, 120 min after last dose, repeat dosing day 2		drug concentration	18 µM
CCCCCOc1ccc(-c2ccc(-c3ccc(C(=O)N[C@H]4C[C@@H](O)[C@@H](OCC[N+](C)(C)C)NC(=O)[C@@H]5[C@@H](O)[C@@H](C)CN5C(=O)[C@H]([C@@H](C)O)NC(=O)[C@H]([C@H](O)[C@@H](O)c5ccc(O)cc5)NC(=O)[C@@H]5C[C@@H](O)CN5C(=O)[C@H]([C@@H](C)O)NC4=O)cc3)cc2)cc1		adult patients not in ICU, plasma	intravenous, 400 mg loading, after first dose, mean		AUC(0-168 h)	811 µg·h/mL
O=c1ccc2ncc(=O)n3c2n1C[C@H]3CN1CCC(NCc2cc3c(cn2)OCCC3)CC1		healthy human volunteers, plasma	oral, dose not given, with: rifampicin	baseline: compound alone	decrease in Cmax	27%
[O-][S+]1CCc2nc(N3CCC(c4ncc(Cl)cn4)CC3)nc(NC3(CO)CCC3)c21 (centres unmarked)	refers to: upper abdominal pain	healthy male humans	12 mg twice daily		adverse event incidence	0%
CN1CC[C@@H](c2c(O)cc(O)c3c(=O)cc(-c4ccc(C(F)(F)F)cc4Cl)oc23)[C@@H]1CO	refers to: Leukopenia	relapsed B-cell malignancies	oral, 150 mg, grade 3-4, intermittent dosing		patients with adverse event	0%
CC[C@H](C)[C@H](NC(=O)[C@H](Cc1ccc(O)cc1)NC(=O)[C@@H]1CCCN1C(=O)[C@H](CCCNC(=N)NC(=O)NCCOCCOCCNC(=O)CCCCCN1/C(=C/C=C/C=C/C2=[N+](CCCCS(=O)(=O)[O-])c3ccccc3C2(C)C)C(C)(C)c2cc(S(=O)(=O)O)ccc21)NC(=O)[C@@H](N)CCCNC(=N)N)C(=O)N[C@@H](CC(C)C)C(=O)O	stable, RP-HPLC	PBS	up to 48 h, pH 7.4, 22 °C		stability	stable
C[C@]1(CO)Cc2ncn(-c3ccc(C#N)c(Cl)c3)c2C(=O)O1		human	40 mg multiple doses, fasted		subjects with any TEAE	22.2%
Cn1cncc1-c1c(F)cncc1NC(=O)c1c(N)nn2cc(F)cnc12		human patients	oral, 130 mg once daily		grade ≥3 white cell decrease incidence	0%
CNC(=O)c1cc(Oc2ccc(NC(=O)Nc3cc(C(C)(C)C)nn3-c3ccc4ncccc4c3)c(F)c2)ccn1	pericardial effusion, NCI CTC v3.0	human patients	oral, 100 mg twice daily, tablet, dose at onset		related SAE	6%

Excerpt of the above:
SMILES	test	system	setting	how to read	quantity	result
CNC(=O)c1cc(Oc2ccc(NC(=O)Nc3cc(C(C)(C)C)nn3-c3ccc4ncccc4c3)c(F)c2)ccn1	pericardial effusion, NCI CTC v3.0	human patients	oral, 100 mg twice daily, tablet, dose at onset		related SAE	6%
O=C(Nc1ccccc1)C1CCN(C(=O)Oc2cccnc2)CC1		healthy women	oral, 60 mg, 7 days		adverse event Palpitations	0%
CCN1CCN(Cc2ccc(Nc3ncc(F)c(-c4cc(F)c5nc6n(c5c4)[C@H](C)CCC6)n3)nc2)CC1	Phase Ia dose escalation	patients with advanced solid tumours	dose not given, monotherapy, any grade		blood bilirubin increased incidence	20.8%
